# Measurements from different studies.
# Protocols differ between the studies behind these lines. Numbers after ± are the reported error.
# Fibroin-modulator-binding protein-1: Fibroin-modulator-binding protein-1 99-193 (Bombyx mori, UniProt Q5FBS0)
# SPT15/TOA1/TOA2/SUA7 1-240; 1-286; 1-122; 1-345: SPT15/TOA1/TOA2/SUA7 1-240; 1-286; 1-122; 1-345 (Saccharomyces cerevisiae)
# allR full length assumed: allR full length assumed (Escherichia coli, UniProt P0ACN4)
# Sequence of UniProt P0ACN4 (whole entry, looked up): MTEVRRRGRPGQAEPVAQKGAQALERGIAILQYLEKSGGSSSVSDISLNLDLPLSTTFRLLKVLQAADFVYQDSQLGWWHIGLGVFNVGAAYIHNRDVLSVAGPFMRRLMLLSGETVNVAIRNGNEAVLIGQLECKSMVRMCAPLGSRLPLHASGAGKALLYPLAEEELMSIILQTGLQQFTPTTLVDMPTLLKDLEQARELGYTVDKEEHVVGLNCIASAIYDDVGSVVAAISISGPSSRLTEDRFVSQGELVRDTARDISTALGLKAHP
# Sequence of UniProt P32787 (whole entry, unmodified, looked up): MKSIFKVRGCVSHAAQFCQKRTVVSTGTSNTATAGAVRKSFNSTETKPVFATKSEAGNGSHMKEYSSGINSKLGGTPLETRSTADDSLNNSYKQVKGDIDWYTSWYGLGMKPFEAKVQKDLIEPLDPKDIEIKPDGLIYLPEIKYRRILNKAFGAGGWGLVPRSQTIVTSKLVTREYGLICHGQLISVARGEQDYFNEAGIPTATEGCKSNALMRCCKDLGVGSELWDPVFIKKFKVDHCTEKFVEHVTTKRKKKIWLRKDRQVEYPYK
# Sequence of UniProt P19880 (whole entry, looked up): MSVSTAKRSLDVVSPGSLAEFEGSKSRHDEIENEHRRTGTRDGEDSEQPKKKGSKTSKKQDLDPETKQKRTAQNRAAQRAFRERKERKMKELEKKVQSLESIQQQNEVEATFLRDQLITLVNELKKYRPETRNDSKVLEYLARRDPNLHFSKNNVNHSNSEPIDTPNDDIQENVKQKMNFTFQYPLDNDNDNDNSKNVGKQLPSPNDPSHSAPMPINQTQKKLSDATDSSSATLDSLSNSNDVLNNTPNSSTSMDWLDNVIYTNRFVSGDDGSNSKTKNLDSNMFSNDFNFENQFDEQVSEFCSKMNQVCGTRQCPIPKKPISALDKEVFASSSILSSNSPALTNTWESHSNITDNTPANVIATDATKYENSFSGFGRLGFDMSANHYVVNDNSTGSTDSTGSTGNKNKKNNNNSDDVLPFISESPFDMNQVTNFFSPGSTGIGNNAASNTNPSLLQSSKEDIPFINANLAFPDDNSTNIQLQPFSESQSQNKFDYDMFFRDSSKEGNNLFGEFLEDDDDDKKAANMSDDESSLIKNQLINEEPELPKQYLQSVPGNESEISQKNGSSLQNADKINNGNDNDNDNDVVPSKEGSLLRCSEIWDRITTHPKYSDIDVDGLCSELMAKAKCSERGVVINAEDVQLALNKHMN
# Sequence of UniProt P25454 (whole entry, looked up): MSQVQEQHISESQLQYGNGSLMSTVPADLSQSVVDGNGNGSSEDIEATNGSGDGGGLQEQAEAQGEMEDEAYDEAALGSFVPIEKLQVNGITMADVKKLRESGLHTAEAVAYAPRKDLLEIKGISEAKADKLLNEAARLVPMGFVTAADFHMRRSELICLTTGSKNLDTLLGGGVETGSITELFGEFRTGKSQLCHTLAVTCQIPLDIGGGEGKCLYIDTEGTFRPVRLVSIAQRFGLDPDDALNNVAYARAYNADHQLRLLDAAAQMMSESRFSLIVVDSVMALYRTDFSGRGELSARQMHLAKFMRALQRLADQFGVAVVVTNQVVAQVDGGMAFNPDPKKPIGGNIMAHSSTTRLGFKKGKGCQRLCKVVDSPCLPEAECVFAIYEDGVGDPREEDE
# Sequence of UniProt Q01844 (whole entry, looked up): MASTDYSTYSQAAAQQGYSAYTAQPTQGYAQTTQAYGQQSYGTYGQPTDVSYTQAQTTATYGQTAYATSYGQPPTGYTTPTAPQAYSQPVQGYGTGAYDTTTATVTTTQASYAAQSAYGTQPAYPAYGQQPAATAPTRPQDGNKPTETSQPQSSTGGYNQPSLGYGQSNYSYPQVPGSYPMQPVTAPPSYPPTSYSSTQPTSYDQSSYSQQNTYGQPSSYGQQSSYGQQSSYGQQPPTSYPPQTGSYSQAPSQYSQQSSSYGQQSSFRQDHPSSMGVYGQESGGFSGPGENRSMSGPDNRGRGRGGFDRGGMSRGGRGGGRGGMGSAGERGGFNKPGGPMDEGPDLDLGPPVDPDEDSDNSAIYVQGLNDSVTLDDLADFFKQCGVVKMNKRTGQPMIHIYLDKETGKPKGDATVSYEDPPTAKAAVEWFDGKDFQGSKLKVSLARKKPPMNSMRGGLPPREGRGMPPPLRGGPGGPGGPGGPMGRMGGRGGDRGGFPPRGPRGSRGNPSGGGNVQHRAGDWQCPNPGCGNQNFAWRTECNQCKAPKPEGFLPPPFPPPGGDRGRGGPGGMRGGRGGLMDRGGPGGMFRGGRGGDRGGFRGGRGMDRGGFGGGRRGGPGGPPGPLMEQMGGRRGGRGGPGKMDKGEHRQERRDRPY
# Sequence of UniProt P33301 (whole entry, looked up): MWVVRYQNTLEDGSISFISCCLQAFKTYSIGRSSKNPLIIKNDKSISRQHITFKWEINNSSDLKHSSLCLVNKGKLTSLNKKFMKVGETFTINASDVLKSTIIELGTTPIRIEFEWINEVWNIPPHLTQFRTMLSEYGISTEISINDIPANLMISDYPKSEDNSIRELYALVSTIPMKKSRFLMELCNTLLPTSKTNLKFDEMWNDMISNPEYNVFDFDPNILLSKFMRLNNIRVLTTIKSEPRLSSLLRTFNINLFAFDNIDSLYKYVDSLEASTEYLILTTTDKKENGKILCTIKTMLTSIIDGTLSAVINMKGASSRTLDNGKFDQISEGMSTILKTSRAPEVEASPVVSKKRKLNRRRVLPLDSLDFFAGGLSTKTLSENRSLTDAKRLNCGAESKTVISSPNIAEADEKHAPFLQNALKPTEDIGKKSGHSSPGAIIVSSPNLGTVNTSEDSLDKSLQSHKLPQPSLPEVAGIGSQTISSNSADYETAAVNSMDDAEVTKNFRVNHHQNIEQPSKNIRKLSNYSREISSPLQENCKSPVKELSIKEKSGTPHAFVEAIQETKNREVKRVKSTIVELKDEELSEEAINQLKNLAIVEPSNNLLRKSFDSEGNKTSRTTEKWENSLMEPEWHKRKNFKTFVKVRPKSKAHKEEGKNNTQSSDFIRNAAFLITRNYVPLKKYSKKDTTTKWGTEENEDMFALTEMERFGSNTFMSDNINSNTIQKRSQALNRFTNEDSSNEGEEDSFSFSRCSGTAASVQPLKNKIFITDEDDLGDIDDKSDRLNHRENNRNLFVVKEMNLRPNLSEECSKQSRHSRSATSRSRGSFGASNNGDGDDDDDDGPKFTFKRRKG
# Sequence of UniProt Q9SP32 (whole entry, looked up): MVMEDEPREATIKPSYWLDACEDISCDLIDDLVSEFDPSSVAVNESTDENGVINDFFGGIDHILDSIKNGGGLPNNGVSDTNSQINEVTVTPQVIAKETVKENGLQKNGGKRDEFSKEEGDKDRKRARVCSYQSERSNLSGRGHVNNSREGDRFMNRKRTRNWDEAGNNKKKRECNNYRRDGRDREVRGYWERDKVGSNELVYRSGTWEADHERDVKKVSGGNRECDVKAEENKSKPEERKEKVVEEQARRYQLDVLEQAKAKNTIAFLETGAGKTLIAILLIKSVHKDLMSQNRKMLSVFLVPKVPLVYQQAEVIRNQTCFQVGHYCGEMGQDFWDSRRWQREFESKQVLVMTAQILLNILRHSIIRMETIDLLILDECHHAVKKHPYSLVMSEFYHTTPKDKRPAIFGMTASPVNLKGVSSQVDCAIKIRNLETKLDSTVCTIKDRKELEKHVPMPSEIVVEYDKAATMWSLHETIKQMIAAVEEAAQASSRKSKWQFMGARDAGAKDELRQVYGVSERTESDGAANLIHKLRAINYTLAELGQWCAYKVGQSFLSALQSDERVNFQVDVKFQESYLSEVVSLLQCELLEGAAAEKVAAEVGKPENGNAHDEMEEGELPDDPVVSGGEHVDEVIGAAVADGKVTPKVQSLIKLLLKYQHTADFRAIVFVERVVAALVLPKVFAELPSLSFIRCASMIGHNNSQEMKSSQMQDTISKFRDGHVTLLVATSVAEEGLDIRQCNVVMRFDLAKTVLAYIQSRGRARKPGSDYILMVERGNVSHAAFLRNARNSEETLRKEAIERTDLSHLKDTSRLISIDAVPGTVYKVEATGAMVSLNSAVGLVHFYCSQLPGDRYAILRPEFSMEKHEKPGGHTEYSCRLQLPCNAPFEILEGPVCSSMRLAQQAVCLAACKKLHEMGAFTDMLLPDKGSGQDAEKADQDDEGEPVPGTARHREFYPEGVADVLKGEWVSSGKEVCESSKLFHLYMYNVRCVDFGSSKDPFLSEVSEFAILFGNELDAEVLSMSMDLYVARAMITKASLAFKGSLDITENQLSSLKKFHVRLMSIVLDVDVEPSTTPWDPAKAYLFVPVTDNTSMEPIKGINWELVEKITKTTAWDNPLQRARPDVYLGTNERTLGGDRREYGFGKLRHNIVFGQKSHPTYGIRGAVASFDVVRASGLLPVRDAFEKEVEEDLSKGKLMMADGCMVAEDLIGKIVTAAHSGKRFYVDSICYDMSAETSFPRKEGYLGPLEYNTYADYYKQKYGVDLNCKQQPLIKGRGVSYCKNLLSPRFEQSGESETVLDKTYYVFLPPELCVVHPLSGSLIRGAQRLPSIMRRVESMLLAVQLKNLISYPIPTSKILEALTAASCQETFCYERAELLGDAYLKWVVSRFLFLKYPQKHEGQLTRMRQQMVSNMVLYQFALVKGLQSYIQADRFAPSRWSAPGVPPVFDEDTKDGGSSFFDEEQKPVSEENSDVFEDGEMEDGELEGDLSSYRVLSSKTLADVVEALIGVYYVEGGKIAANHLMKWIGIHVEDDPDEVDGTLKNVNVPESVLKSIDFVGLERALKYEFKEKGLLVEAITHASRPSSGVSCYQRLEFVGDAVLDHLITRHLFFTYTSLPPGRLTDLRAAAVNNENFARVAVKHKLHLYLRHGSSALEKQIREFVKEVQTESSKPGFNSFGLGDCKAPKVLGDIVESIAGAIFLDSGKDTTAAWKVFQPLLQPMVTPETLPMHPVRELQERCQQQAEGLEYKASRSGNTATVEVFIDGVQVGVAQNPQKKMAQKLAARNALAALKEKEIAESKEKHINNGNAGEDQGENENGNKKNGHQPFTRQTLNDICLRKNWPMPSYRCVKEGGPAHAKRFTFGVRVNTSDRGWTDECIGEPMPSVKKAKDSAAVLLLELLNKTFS
Strand,target,assay,test system,conditions,Kd [µM]
TTCTACGAGATCGTCATGAC (ssDNA; m6A in GATC),"recA full length assumed (Escherichia coli, UniProt P0A7G6)",BLI,single-stranded DNA,added: ATPgS,0.94 ± 0.01
AGCAAGCAAGCA (dsDNA),Fibroin-modulator-binding protein-1,ITC,"double-stranded DNA, one strand shown",,15.8
GCATGGGCGGCATGAACCG (dsDNA; blunt; O6-POB-G; one strand modified C),"MGMT full length assumed C145A (Homo sapiens, UniProt P16455)",stopped-flow fluorescence,"double-stranded DNA, one strand shown","5 °C, apparent",0.56 ± 0.04
CGCATAATTACCCAATTACCGAATTACCTAATTACGCAATTACGGAATTACGTAACTCCGGCGGTATGAC (dsDNA),"YAP1 full length assumed (Saccharomyces cerevisiae, UniProt P19880)",MITOMI,"double-stranded DNA, one strand shown",not purified,0.33 ± 0.04
TAAGACACGATGCGATAAAATCTGTTTGTAAAATTTATTAAGGGTACAAATTGCCCTAGC (dsDNA),"CGAS 1-522 K394E (Homo sapiens, UniProt Q8N884)",fluorescence anisotropy,"double-stranded DNA, one strand shown",,0.0989 ± 0.00382
TCTTTTCTTGCTTAAATCTATAACTACAAAAAACATCAAGTCAATCGGTCC (dsDNA; 5'-amino-C6 primer),SPT15/TOA1/TOA2/SUA7 1-240; 1-286; 1-122; 1-345,array,"double-stranded DNA, one strand shown",TBP:TFIIA:TFIIB ternary complex,0.00296 ± 0.00045
TTCTGATCACCGACATGAAAGCTAACAGGAACGTTAAGTGCCTTAGCTCCGGCTACCGTGC (dsDNA),allR full length assumed,BLI,"double-stranded DNA, one strand shown",,1.96
AAAAAAAAAAAA (dsDNA),Fibroin-modulator-binding protein-1,ITC,"double-stranded DNA, one strand shown",,2.85 ± 0.361
TGGATCAATCGTATAAAGAGAATTCCTGGTATGGATCAAGTCAATCGGTCC (dsDNA; 5'-amino-C6 primer),SPT15/TOA1/TOA2/SUA7 1-240; 1-286; 1-122; 1-345,array,"double-stranded DNA, one strand shown",TBP:TFIIA:TFIIB ternary complex,0.00146 ± 0.00019
CACCATCCACTAC / ATGTAGTTGTAGTGGATGGTGGTAC (dsDNA; primer-template),"POLH 1-432 R81C (Homo sapiens, UniProt Q9Y253)",fluorescence polarization,,added: MgCl2 5 mM,0.018 ± 0.002
CTGAAGGGGGGGCTATAAAAGGGGATGGGGGCTCCTCAAGTCAATCGGTCC (dsDNA; 5'-amino-C6 primer),SPT15/TOA1/TOA2/SUA7 1-240; 1-286; 1-122; 1-345,array,"double-stranded DNA, one strand shown",TBP:TFIIA:TFIIB ternary complex,0.00192 ± 0.00036
DNA 1 GCTCAGTTCCCTGCTGGAAACGCCGCGGTCGTAGTAATATAGATAGGTCTGGATCAGATGTTGTTTCGGGGATTGTCAACAGCTGAGC / DNA 2 GCTCAGCTGTTGACAATCCCCGAAACAACAGAGACGAACTCTTCGCAGCAGCCGAGCTGACCGCGGCGTTTCCAGCAGGGAACTGAGC (DNA; 28 nt internal bubble),"EWSR1 1-656 (Homo sapiens, UniProt Q01844)",EMSA,folded DNA,,0.046 ± 0.015
CTAACTAACTAA (dsDNA),Fibroin-modulator-binding protein-1,ITC,"double-stranded DNA, one strand shown",,2.15 ± 0.134
TCCTGAAGGGGCGCCTATAAAAGGTCCTATCGTCGTCAAGTCAATCGGTCC (dsDNA; 5'-amino-C6 primer),SPT15/TOA1/TOA2/SUA7 1-240; 1-286; 1-122; 1-345,array,"double-stranded DNA, one strand shown",TBP:TFIIA:TFIIB ternary complex,0.0317 ± 0.0797
AGATCTCCATCCTTGGGATATGGCTACCAGAAAGTAAAGGGACGATACAAGTCAAGTGAGA (dsDNA),allR full length assumed,BLI,"double-stranded DNA, one strand shown",,1.4
GCCTGTTGTGAGCCTCCTAACATTTAGAGCCGTGTCGTACGAACTATGACCCAGTGCCCGCTTATTCTTGTCTCCC (ssDNA; two predicted stem-loops),Oprm1 fragment (Mus musculus),fluorescence,MOR-expressing cells,not purified,0.028
GCGGGCGGGCGG (dsDNA),Fibroin-modulator-binding protein-1,ITC,"double-stranded DNA, one strand shown",,4.79 ± 0.888
AAAGAAAGAAAGAAAGAAAGAAAGAAAGAAAGAAAGAAAGAAAGAAAGAAAGAAAGAAAG (ssDNA),"CGAS 161-522 K394E (Homo sapiens, UniProt Q8N884)",fluorescence anisotropy,single-stranded DNA,,1.77 ± 0.15
ATCTAACTGCTGCGCCGCCGGGAAAATACTGTACGGTTAGA (ssDNA),"PTK7 31-1070 (Homo sapiens, UniProt Q13308)",live-cell fluorescence correlation spectroscopy,,"in cells, not purified",0.00079 ± 0.00015
TCCTGAAGGGGCACCTATAAAAGGTCCTATCGTCGTCAAGTCAATCGGTCC (dsDNA; 5'-amino-C6 primer),SPT15/TOA1/TOA2/SUA7 1-240; 1-286; 1-122; 1-345,array,"double-stranded DNA, one strand shown",TBP:TFIIA:TFIIB ternary complex,0.0017 ± 0.00025
TTTTTTTTTTTTTTTTTTTTTTTTTTTTTTTTTTTTTTTTTTTTTTTTTTTTTTTTTTTTTTTTTTTTTT (ssDNA),"RAD51 full length assumed (Saccharomyces cerevisiae, UniProt P25454)",fluorescence anisotropy,single-stranded DNA,"apparent, Hill fit, added: ATP",0.34 ± 0.04
TTGATAAGAGGTCATTTTTGCGGATGGCTTAGAGCTTAATTGCTGAATCTGGTGCTGTAGCTCAACATGTTTTAAATATGCAA (ssDNA),"MGM101 23-269 K218A (Saccharomyces cerevisiae, UniProt P32787)",fluorescence polarization,single-stranded DNA,,1.2 ± 0.1
"DNA 1 TGGGTGGGTAGGGTGGGTAGGGGAGGAT / DNA 2 ATCCTCCCCTA (DNA; intramolecular parallel G4, 5' overhang, 11-bp duplex)","REV1 330-833 G498E (Homo sapiens, UniProt Q9UBZ9)",FP,folded DNA,KCl 100 mM,0.0065 ± 0.0017
CACTCTGACGTCACACTC (dsDNA),"ATF4 276-341 C310A (Homo sapiens, UniProt P18848)",fluorescence polarization,"double-stranded DNA, one strand shown","one-site model, dimer, added: Mg2+ 10 mM",3.08 ± 0.73
GGCGGGCGGGCG (dsDNA),Fibroin-modulator-binding protein-1,ITC,"double-stranded DNA, one strand shown",,4.64 ± 0.794
"DNA 1 CACTGGCCGTCTTACGGTCGCTCTGCTCGACG / DNA 2 CGACCGTAAGACGGCCAGTG (dsDNA; 20 bp, 3' 12 nt overhang)","RECQL 63-592 K171A (Bos taurus, UniProt A0JN36)",fluorescence anisotropy,double-stranded DNA,added: Mg2+ 3 mM,0.0179 ± 0.0059
GGGCUGCUGUGGCAUUUCGAUGCUGCAUCGGC (structured RNA),"DCL1 1732-1811 (Arabidopsis thaliana, UniProt Q9SP32)",fluorescence polarisation,folded RNA,,8.9 ± 0.9
ATGACATGACACGTTACGTT (dsDNA),"NHP6A full length assumed (Saccharomyces cerevisiae, UniProt P11632)",fluorescence anisotropy,"double-stranded DNA, one strand shown",added: Mg2+ 2 mM,0.0102
AGAACAGAGTGTTCT (dsDNA),"NR3C1 1-525 (Homo sapiens, UniProt P04150)",fluorescence anisotropy,"double-stranded DNA, one strand shown",,0.21
AGTTGGCAAGTC (dsDNA),"NFIB 14-176 (Homo sapiens, UniProt O00712)",BLI,"double-stranded DNA, one strand shown",added: Zn2+ 1 mM,0.00209 ± 6e-05
CTCGTTCAGGGGGCTGGTAATATTGGAAAAATTGCCCGTTCTTTAGCTGAAATCAAACTGA (dsDNA),allR full length assumed,BLI,"double-stranded DNA, one strand shown",,0.232
UAGAAGCGGAUUUAGCUCAGUUGGGAGAGCGCCAGACUGAAGAUCUGGAGGUCCUGUGUUCGAUCCACAGAAUUCGCA (tRNA (Saccharomyces cerevisiae)),"RNA-free ribonuclease P 1-192 E141Q (Aquifex aeolicus, UniProt O67035)",fluorescence polarization,folded RNA,added: CaCl2 20 mM,1.51 ± 0.14
GUGUGAAUGAAU (ssRNA),"TARDBP 102-269 (Homo sapiens, UniProt Q13148)",BLI,RNA,,0.004 ± 0.0009
CGGGCGGGCGGG (dsDNA),Fibroin-modulator-binding protein-1,ITC,"double-stranded DNA, one strand shown",,6.16
TTAATATTATTTAATATTTTATAAAATTTTTATTAATTTAATTTTTAATTATTTT (dsDNA),"Transcriptional regulator, TrmB 1-129 (Saccharolobus islandicus, UniProt F0NIS6)",EMSA,"double-stranded DNA, one strand shown",added: Mg2+ 10 mM,0.375 ± 0.047
GTGTTCGGACTCTGCCTCAAGACGGTAGTCAACGTGCTTG (ssDNA),"XRS2 1-325 (Saccharomyces cerevisiae, UniProt P33301)",EMSA,single-stranded DNA,"Hill fit, apparent",3.7 ± 0.23
ATTTATATTATTTATTCATATTTATATTTA (ssDNA),"APOBEC3F full length assumed W310A (Homo sapiens, UniProt Q8IUX4)",EMSA,single-stranded DNA,,3.45 ± 1.03
CCTACCTACCTA (dsDNA),Fibroin-modulator-binding protein-1,ITC,"double-stranded DNA, one strand shown",,3.48 ± 0.395
"CTTACGACGGGCGTAATGGTGCGGGTGGTTGGGGCGCGGTCGTAAG (DNA hairpin; 8-bp stem, 30-nt loop)",F2 alpha-thrombin (Homo sapiens),BLI,folded DNA,,0.0044
TCCTGAAGGAGCGCCTATAAAAGGTCCTATCGTCGTCAAGTCAATCGGTCC (dsDNA; 5'-amino-C6 primer),SPT15/TOA1/TOA2/SUA7 1-240; 1-286; 1-122; 1-345,array,"double-stranded DNA, one strand shown",TBP:TFIIA:TFIIB ternary complex,0.00237 ± 0.0004
ACCCACCCACCC (dsDNA),Fibroin-modulator-binding protein-1,ITC,"double-stranded DNA, one strand shown",,6.04
AAAGAAAGAAAGAAAGAAAGAAAG (ssRNA),"CGAS 161-522 (Homo sapiens, UniProt Q8N884)",fluorescence anisotropy,RNA,,1.52 ± 0.28
CCCGCCCCGCACTAGGACCCCTGCAGATGATCAGGTCAAGTCAATCGGTCC (dsDNA; 5'-amino-C6 primer),SPT15/TOA1/TOA2/SUA7 1-240; 1-286; 1-122; 1-345,array,"double-stranded DNA, one strand shown",TBP:TFIIA:TFIIB ternary complex,0.0121 ± 0.0113
TTTTTTTTTTTTTTTTTTTTTTTTTTTTTTTTTTTTTTTTTTTTTTTT (dsDNA),"MGM101 23-269 (Saccharomyces cerevisiae, UniProt P32787)",fluorescence polarization,"double-stranded DNA, one strand shown",,2.1 ± 1.5
TCCTGAAGGGGCACCCTAGCTTGGTCCTATCGTCGTCAAGTCAATCGGTCC (dsDNA; 5'-amino-C6 primer),SPT15/TOA1/TOA2/SUA7 1-240; 1-286; 1-122; 1-345,array,"double-stranded DNA, one strand shown",TBP:TFIIA:TFIIB ternary complex,0.00314 ± 0.00038
"DNA 1 GGATCTCGACGCTCTCCCTT / DNA 2 GTCGAGATCC (dsDNA; 3' 10-nt overhang, blunt end)","RECQL 49-616 (Homo sapiens, UniProt P46063)",fluorescence anisotropy,double-stranded DNA,"Mg2+ 5 mM, added: ADPNP 2 mM",0.073 ± 0.007

# Repeated from above:
Strand,target,assay,test system,conditions,Kd [µM]
GUGUGAAUGAAU (ssRNA),"TARDBP 102-269 (Homo sapiens, UniProt Q13148)",BLI,RNA,,0.004 ± 0.0009
AGATCTCCATCCTTGGGATATGGCTACCAGAAAGTAAAGGGACGATACAAGTCAAGTGAGA (dsDNA),allR full length assumed,BLI,"double-stranded DNA, one strand shown",,1.4
AGTTGGCAAGTC (dsDNA),"NFIB 14-176 (Homo sapiens, UniProt O00712)",BLI,"double-stranded DNA, one strand shown",added: Zn2+ 1 mM,0.00209 ± 6e-05
UAGAAGCGGAUUUAGCUCAGUUGGGAGAGCGCCAGACUGAAGAUCUGGAGGUCCUGUGUUCGAUCCACAGAAUUCGCA (tRNA (Saccharomyces cerevisiae)),"RNA-free ribonuclease P 1-192 E141Q (Aquifex aeolicus, UniProt O67035)",fluorescence polarization,folded RNA,added: CaCl2 20 mM,1.51 ± 0.14
AAAGAAAGAAAGAAAGAAAGAAAG (ssRNA),"CGAS 161-522 (Homo sapiens, UniProt Q8N884)",fluorescence anisotropy,RNA,,1.52 ± 0.28
DNA 1 GCTCAGTTCCCTGCTGGAAACGCCGCGGTCGTAGTAATATAGATAGGTCTGGATCAGATGTTGTTTCGGGGATTGTCAACAGCTGAGC / DNA 2 GCTCAGCTGTTGACAATCCCCGAAACAACAGAGACGAACTCTTCGCAGCAGCCGAGCTGACCGCGGCGTTTCCAGCAGGGAACTGAGC (DNA; 28 nt internal bubble),"EWSR1 1-656 (Homo sapiens, UniProt Q01844)",EMSA,folded DNA,,0.046 ± 0.015
